Results collected from several papers.
“And” joins repeats or separate records; there may be more than shown. Numbers after ± are the reported error. Values after ≈ are worked out from the molar mass of the structure shown.
Organism: Escherichia coli

Under “inhibition zone diameter”, C[C@H]1c2cccc(O)c2C(=O)C2=C(O)[C@]3(O)C(=O)C(C(N)=O)=C(O)[C@@H](N(C)C)[C@@H]3[C@@H](O)[C@@H]21 is recorded as 10 mm (CGMCC 1.9; concentration not given, 18 h, 37 °C).
For N[C@@H](CCC(=O)O)C(=O)O, the EC50 was 57.7 µM (chemotactic response, attractant, FRET).
Under “MIC in combination”, N=C(N)c1ccc(OCCCCCCCCOc2ccc(C(=N)N)cc2)cc1 is recorded as 6.25 µg/mL (BW25113; concentration not given, lowest-FICI combination, with: erythromycin).
For [H]/N=C(/N)N[C@H]1[C@H](O)[C@@H](O)[C@H](O[C@@H]2O[C@@H](C)[C@](O)(C=O)[C@H]2O[C@@H]2O[C@@H](CO)[C@H](O)[C@@H](O)[C@@H]2NC)[C@@H](N/C(N)=N\[H])[C@@H]1O, “inhibition zone diameter” read 0 mm (CGMCC 1.9; concentration not given, 18 h, 37 °C).
With Cc1ccc(C[C@H](NC(=O)[C@@H](Cc2ccccc2)NC(=O)[C@@H](Cc2c[nH]c3ccccc23)NC(=O)[C@@H](N)CCCN)C(=O)N[C@H](Cc2ccccc2)C(=O)N[C@H](CCCN)C(N)=O)cc1 the IC50 was > 20 µg/mL (bacterial growth; ATCC 35218).
CC1(C)S[C@@H]2[C@H](NC(=O)[C@H](N)c3ccccc3)C(=O)N2[C@H]1C(=O)O: “inhibition zone diameter” 9 mm (CGMCC 1.9; concentration not given, 18 h, 37 °C).
CC(=O)Oc1ccc(-c2c(C(N)=O)c(N)n(N)c(=O)c2C#N)cc1 gave a viable count of 0 CFU (time-kill; 1 x MIC, 120 min, 2 h).
For CC1(C)S[C@@H]2[C@H](NC(=O)[C@H](N)c3ccc(O)cc3)C(=O)N2[C@H]1C(=O)O, “zone of inhibition” read 26 mm (MTCC 405; 10 µg/mL).
Under “inhibition zone diameter”, O=C(N[C@H](CO)[C@H](O)c1ccc([N+](=O)[O-])cc1)C(Cl)Cl is recorded as 0 mm (CGMCC 1.9; concentration not given, 18 h, 37 °C).
The inhibition of C#CCCCC(=O)NCC is reported as 5 ± 14% (LuxR reporter, antagonist; DH5α sensor strain; 4 µM, with: OHHL 200 nM).
C[C@@H](O)[C@H]1C(=O)N2C(C(=O)O)=C(S[C@@H]3CN[C@H](C(=O)N(C)C)C3)[C@H](C)[C@H]12 gave a bacterial load of 5.84 log CFU/brain and 4.6 log CFU/brain and 4.22 log CFU/brain and 5.16 log CFU/brain and 4.12 log CFU/brain and 3.82 log CFU/brain (ATCC 25922, mice, meningitis, brain; dose not given).
N=C(N)c1cccc(OCCCCCOc2cccc(C(=N)N)c2)c1 — result for “MIC in combination”: 100 µg/mL (BW25113; concentration not given, lowest-FICI combination, with: rifampicin).
The FIC index of COC(=O)[C@H]1[C@H]2C[C@@H]3c4[nH]c5cc(OC)ccc5c4CCN3C[C@H]2C[C@@H](OC(=O)c2cc(OC)c(OC)c(OC)c2)[C@@H]1OC is reported as 1 (checkerboard; tetracycline-resistant; 64 µM, with: tetracycline).
For N=C(N)c1ccc(OCc2ccc3ccc(COc4ccc(C(=N)N)cc4)cc3c2)cc1, “MIC in combination” read 3.13 µg/mL (BW25113; concentration not given, lowest-FICI combination, with: rifampicin).
The EC50 of NCC(=O)O is reported as 87.2 µM (chemotaxis pathway, FRET; MG1655).
CC(C)Oc1c(NC(=O)c2ccc(NC(=O)[C@H](CC(N)=O)NC(=O)c3ccc(NC(=O)c4ccc(C#N)cc4)cc3)cc2)ccc(C(=O)Nc2ccc(C(=O)O)cc2)c1O: “bacterial load reduction below stasis” 2.87 log10 CFU/g (ATCC 25922, neutropenic mouse thigh infection; iv, 40 mg/kg/day).
With CO[C@H]1/C=C/O[C@@]2(C)Oc3c(C)c(O)c4c(c3C2=O)C(=O)C(N2CCN(c3ccc([N+](=O)[O-])cc3Cl)CC2)=C(NC(=O)/C(C)=C/C=C/[C@H](C)[C@H](O)[C@@H](C)[C@@H](O)[C@@H](C)[C@H](OC(C)=O)[C@H]1C)C4=O the MIC was 20 µM (ATCC 25922).
For N=C(N)c1ccc(OCc2ccc(-c3ccccc3)cc2COc2ccc(C(=N)N)cc2)cc1, the FICI was 0.094 (checkerboard; mcr-2 polymyxin-resistant; unit not given, with: rifampicin; lower = stronger synergy).
N[C@@H](CO)C(=O)O has an EC50 of 0.4 µM (chemotactic response, attractant, FRET).
The MIC of Cc1c(CN(C)C(=O)/C=C/c2cnc3c(c2)CC(NC(=O)OC(C)(C)C)C(=O)N3)oc2ccccc12 (stereo not drawn) is reported as > 32 µg/mL (broth microdilution; AR-0137).
COC[C@H]1O[C@@H]2O[C@@H]3[C@@H](OC)[C@@H](OC)[C@@H](O[C@@H]4[C@@H](OC)[C@@H](OC)[C@@H](O[C@@H]5[C@@H](OC)[C@@H](OC)[C@@H](O[C@@H]6[C@@H](OC)[C@@H](OC)[C@@H](O[C@@H]7[C@@H](OC)[C@@H](OC)[C@@H](O[C@@H]1[C@@H](OC)[C@H]2OC)O[C@@H]7COC)O[C@@H]6COC)O[C@@H]5COC)O[C@@H]4COC)O[C@@H]3COC gave a bioluminescence of 852 ± 23 RLU (LuxR reporter, agonist; DH5α sensor strain; 20 µM).
With O=c1c2cc(Cl)ccc2[nH]c(=S)n1Cc1cccnc1 the MIC90 was > 100 µM (uropathogenic).
For O=[N+]([O-])c1ccc(O)c2ncccc12, the IC50 was 1.93 ± 0.15 µM (bacterial growth, OD600; UAMS-1).
CN[C@@H]1[C@@H](O[C@H]2O[C@H](CO)[C@@H](N)[C@H](O)[C@H]2O)OC2C[C@@H](N)[C@@H](O[C@H]3[C@H](O)[C@@H](O)[C@H](N)C[C@@H]3N)OC2[C@@H]1O (stereo partly drawn): “MIC fold shift” 2 (ATCC 25922; relative to: 5% CO2 over ambient air).
For N=C(N)c1ccc(OCCCOc2ccc(C(=N)N)cc2)cc1, “MIC in combination” read 50 µg/mL (BW25113; concentration not given, lowest-FICI combination, with: erythromycin).
The bacterial load of C[C@@H](O)[C@H]1C(=O)N2C(C(=O)O)=C(SCCN=CN)C[C@H]12 is reported as 3.73 log CFU and 3.87 log CFU and 3.86 log CFU and 3.96 log CFU and 3.82 log CFU and 3.97 log CFU (2904, female ICR mice, peritonitis, spleen; dose not given, 168 h).
N=C(N)c1ccc(OCCCCCCCOc2ccc(C(=N)N)cc2)cc1 — result for “MIC in combination”: 12.5 µg/mL (BW25113; concentration not given, lowest-FICI combination, with: rifampicin).
Nc1ccc2c(c1)B(O)OC2 has a post-antibiotic effect of 0.52 ± 0.11 h (ATCC 25922; 1xMIC, 1 h).
CO[C@H]1/C=C/O[C@@]2(C)Oc3c(C)c(O)c4c(O)c(c(/C=N/N5CCN(C6CCCC6)CC5)c(O)c4c3C2=O)NC(=O)/C(C)=C\C=C\[C@H](C)[C@H](O)[C@@H](C)[C@@H](O)[C@@H](C)[C@H](OC(C)=O)[C@@H]1C has an MIC of 5 µM (ATCC 25922).
OC[C@H]1O[C@@H]2O[C@H]3[C@H](O)[C@@H](O)[C@@H](O[C@H]4[C@H](O)[C@@H](O)[C@@H](O[C@H]5[C@H](O)[C@@H](O)[C@@H](O[C@H]6[C@H](O)[C@@H](O)[C@@H](O[C@H]7[C@H](O)[C@@H](O)[C@@H](O[C@H]8[C@H](O)[C@@H](O)[C@@H](O[C@H]1[C@H](O)[C@H]2O)O[C@@H]8CO)O[C@@H]7CO)O[C@@H]6CO)O[C@@H]5CO)O[C@@H]4CO)O[C@@H]3CO gave an inhibition of -2 ± 6% (LuxR reporter, antagonist; DH5α sensor strain; 4 µM, with: OHHL 200 nM).
The viable count of N#Cc1c(-c2ccc(OCc3ccccc3)cc2)c(C(N)=O)c(N)n(N)c1=O is reported as 0 log CFU/mL (time-kill; 1 x MIC, 120 min).
N=C(N)c1ccc(/N=N/Nc2ccc(C(=N)N)cc2)cc1 gave an MIC90 of 377 ± 45 µM (≈ 106 µg/mL) (bacterial growth, inhibitor, OD600; E1; overnight).
For N=C(N)c1ccc(OCCC(CCOc2ccc(C(=N)N)cc2)c2ccccc2)cc1 (stereo not drawn), “MIC in combination” read 6.25 µg/mL (ATCC 25922; concentration not given, with: rifampicin).
For C[C@@H](O)[C@H](N)C(=O)O, the EC50 was > 1000 µM (chemotaxis pathway activity, FRET; MG1655).
N=C(N)c1ccc(OCCCCCCCCCOc2ccc(C(=N)N)cc2)cc1: “MIC in combination” 3.13 µg/mL (BW25113; concentration not given, lowest-FICI combination, with: erythromycin).
For CN[C@H](CC(C)C)C(=O)N[C@H]1C(=O)N[C@@H](CC(N)=O)C(=O)N[C@H]2C(=O)N[C@H]3C(=O)N[C@H](C(=O)N[C@H](C(=O)O)c4cc(O)cc(O)c4-c4cc3ccc4O)[C@H](O)c3ccc(c(Cl)c3)Oc3cc2cc(c3O[C@@H]2O[C@H](CO)[C@@H](O)[C@H](O)[C@H]2O[C@H]2C[C@](C)(N)[C@H](O)[C@H](C)O2)Oc2ccc(cc2Cl)[C@H]1O, the MBC was 125 µg/mL (≈ 86.3 µM) (ATCC BAA-1025).
